Measured values pooled from the literature.
Every numbered part comes from another study and shows a few of its results, in no order. Substitutions count along the parent as printed.

Sample 1
Target: CCNB3, cyclin fold, Cln2 fusion (human)
Method: yeast growth competition, sequencing
Sample: yeast
Setting: weak parent motif
Reference: not given
Reading: higher = stronger binding
Quantity: normalised enrichment score
Starting sequence: DOT1L docking peptide (human); SEAKRRIVFTITT
S1A: 0.393
F9A: 0.314
T12A: 0.287
T13A: 0.259
I7A: -0.0539
E2A: 0.603

Sample 2
Target: RING finger protein unkempt homolog, zinc fingers 1-6, GST-SBP tag (UNK, Homo sapiens, UniProt Q9C0B0, residues 30-357)
Method: RNA Bind-n-Seq
Molecule type: RNA
Sample: in vitro
Concentration: not given
Setting: RNA with constant flanks, human and mouse sites, ends assumed
Reference: input RNA pool
Reading: higher = stronger binding
Quantity: bound/input enrichment
All sequences stand within: GGGAGUUCUACAGUCCGACGAUC … CAACAGAGGAUUGAGCAUCA
Target sequence (chain): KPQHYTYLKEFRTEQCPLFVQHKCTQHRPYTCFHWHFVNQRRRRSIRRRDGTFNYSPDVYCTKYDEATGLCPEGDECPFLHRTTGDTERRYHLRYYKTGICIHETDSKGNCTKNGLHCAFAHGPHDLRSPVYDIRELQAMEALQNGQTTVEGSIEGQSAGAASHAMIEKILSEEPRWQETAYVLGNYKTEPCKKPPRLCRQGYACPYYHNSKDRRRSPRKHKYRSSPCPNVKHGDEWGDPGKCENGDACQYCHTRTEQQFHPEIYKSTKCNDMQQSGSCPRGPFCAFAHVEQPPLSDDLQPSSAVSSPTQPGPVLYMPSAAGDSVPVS
AGAAGAUUUUAUCUAGCUUAUACAAGGCUGCUGGUGUUCCCUCUUUUUUUCCACGAGGGUGUUUUUGGCUGCAAUUGCAUGAAAUCCCAAUGGUGUAGACCAGUGGCGAUGGAUCUAGGA: 0.523 ratio
GGUAUUUCAUUCAUCUUUUGCUGUUUCCGAAAUAAUGAUCACCCAGAAAUCACGUAUCGGCUGCGAAAUGAUAGCAACUUUGCGCUUCAGACCAUGGAACCAGCAUUGCCCAUGCCCCCU: 0.146 ratio
UCUCCAUCUUGUUACAUUCCACUGCGGAGACUACAGGAUUUGGCCUCCAUGAUCAAUGUAGAAUAUUUAAGUGGGUCUGCUGAUGGAUCAGAAUCCUUUCAAGACCCUGCAAAAAGUGAU: 0.617 ratio
ACAAAAAACAAACGACCAUUUCUCUAAGCCAAGUUUCUUUUAGAGACAUUUUAACUUAUUUAGCUGAACUCUAGAUUUUUUGGUAAACUAUCAAUCUGUAUAUGUUGUAAUUAAGUGUCU: 1.57 ratio
CUUGCUACACUUGGCACCCCCCCGCCCCCACCACAACCCUGCCUCUCCAUCAUGAACCUGCCUUUCCUCCUCCCUCGCUCCUCCCACAACCUCAGCCCACCCAGCCGGUAUCCUCUGAGG: 1.32 ratio
CCUCAUAGACCUUAUUAGAUAAUGCUGUUUUCUGGGCUCCUUAACUUCCAAAAUAGCUACUAGUUUCCAUUUUUGGUUACAUUGUGAACUAUUUCCAUAUUCCUCUUAACAUGCUAUUUU: 11.9 ratio
AGGGAAAUAUUAUCUGAUGACAAGCAUGAUUGGGAGCAGAGAGUAAAUGCUCUAAAAAAGAUUAGAUCUUUACUUUUGGCUGGUGCUGCUGAGUAUGAUAACUUCUUUCAACAUUUGCGU: 0.298 ratio
GCAAAAGUAGAACAGCUUGCAGUGAGAUUUAAGACAAAGGAAAUGACUGAGAGUUUUAAGAAAAAAUUUGAAGAAUGUCAACAAAAUAUAAUAAAACUCCAGAAUGGACAUACAUCCCUU: 0.445 ratio
GAUGUGGCAUGGUUCCUGACGGAAACUUCCCCCUUCAUGUGGUCGAAUCUGGGCAUUGGCCUAGCAAUUUCUCUGUCUGUGGUUGGAGCAGCCUGGGGAAUCUAUAUAACCGGCUCAUCC: 0.211 ratio
AUACAGUUAUCUCAAUAAUAAAGUUUUUUUCGAGAAGUUAUAAAUGAUUUUUUUUAAAGGAGGUAAAUAUCGAGUUCCAUGACAAUCUGACAGGACCUGGGAGACGCUGCUUCUUCCGCC: 0.27 ratio
UGGAAGGAUGAGUUCAAGGCACACUCGAGGGUGAAGUGUCCAAACUCAGGGUGCUGGCUGGAGUUCCCCAGCAUCUACGGGCUCAAGUACCAUUACCAGCGGUGCCAAGGGGGUGCCAUC: 0.0769 ratio

Sample 3
Target: RNA binding protein fox-1 homolog 2, RRM domain, GST-SBP tag (RBFOX2, Homo sapiens, UniProt O43251-10, residues 100-194)
Method: RNA Bind-n-Seq
Molecule type: RNA
Sample: in vitro
Concentration: 365 nM
Setting: natural RNA segment, single round, ends assumed
Reference: no-protein control
Reading: higher = stronger binding
Quantity: RBNS enrichment (R)
All sequences stand within: GGGAGUUCUACAGUCCGACGAUC … UGGAAUUCUCGGGUGCCAA
Construct (chain): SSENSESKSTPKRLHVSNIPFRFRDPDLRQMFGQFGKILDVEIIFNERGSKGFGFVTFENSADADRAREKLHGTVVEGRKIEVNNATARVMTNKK
GUGUCCAUCAUCAGGGGAAGAUCAAACACAGGUGCACUCAGCUGCCCAGGGCCUCUGGGACACUUGCCUUGACUUGCAACUUGCCUUGAACAUCACGAUCAAAGCAGCAG: 0.235
GAAUAUUUAUAGGCAAUACAGUCAAAGUUUCAAAAUAGCAUCACACAAAACAUGUUUAUAAAUGAACAGGAUGUAAUGUACAUAGAUGACAUUAAGAAAAUUUGUAUGAA: 0.316
UCUUUGCUGGUUUACUCUAGGACUUCAAAGUUUGUCUGGGAUUUUUUUAUUAAAAAAAAUUGUCUUUGAGAGUUGAGCUGGCACAGUAUUCUGUCCUAUAGAUUACUGGU: 0.877
GAGAAGAGGCGCUUCAAGCUCUUCUAAGCCUUGAUGGUGUCUCCCUUUAGGCAAAGAUCUGAAAUAUGACUACAGUUGUGCUGUUGAUGGGUUCUGCUUUAGAAAUUGUA: 0.538
CUACUCCCACACUUGCUUGUGAAACGUGUACCAGCUACCUAAGGAGGGCCAAGGCAGGAAGGGCCAGGGCCUCCUCUGUCCUUACCAACUCUGGGAAGUCAGCUCUGCCG: 0.758
UUCCUAUGAGCUCUCUGCUCAGAGCAGCUGUCUGUGGUCCCGUGGGUCCUGGAUUCUGUGAUGGUAUCAGCACCUGGACGGCCCCAGUCUAGAUUCAGCAAUGAAAAUCC: 0.215
UGUAGACUAGAGGAGAGGCUAGAGAGCAUGUGCUGCGGGGCCUAAUUAUAGGUCCUCACUCUUGACAGGGCUGAGCAAACAGAAACUGUCCACCAGUGAUCUCAAGCAUG: 3.09
GCAAGGCUGCUGGCAGACUUCUCCACUGACCUGAGUGUGCUUUUUUUUUCCCCUAAAUGUAUUGCAUCAAGCCUCAGUGCUUAUGGAGUGCAGUGGUCUUCAUCUUCCCC: 0.421
AGAGAGUUACCUCAGGGGAUCCAGAGUUGCCGCAAGUCUGAUGGCGCCAUCAAACUUAUGGGCAGGGAUAACAGUGUGCCUGGUUAAUAUUAAUAUUCCCAUUUUAUUAA: 0.455
UUGCACUAGUGGGGACUGCUUUUCUCUCACUAAAUAUAGCAGUUAAUAUCCAGUCAUUAAGGAGUUGUCACUCUUCAUCAGAGUCACCGGACCUAUGCAAUUACAUGGGC: 1.75
UAUUAACCAUGUUGGGUGGAUAGCGGCAGAGCAAAAAGUUUGAAUGGGCUAGAGGUGGGAAGCUUGAGUGUUUAAUAAAAUGAGGCUUUUGGAAAGAAAGAUGAAAACGU: 1.53
CACAGGCUUGGAACUCAGGGAGAAGCUAUGGCUACCACAUGGGUCCACAAGGCAGAAGGGAUCACCGGUGGCAGUCACUCGCGUUUUGUGGAGUGUGGCAGGUGGACUUG: 0.487

Sample 4
Target: Interferon regulatory factor 7, full length, phosphomimetic (IRF7, Homo sapiens, UniProt Q92985, residues 1-503, S471D/S472D/S475D/S476D/S477D/S483D/S484D/S487D)
Method: protein-binding microarray
Molecule type: double-stranded DNA, one strand shown
Sample: in vitro
Concentration: 2200 nM top
Setting: 60-bp whole probe
Added: salmon DNA 0.4 mg/ml
Reference: random background probes
Reading: higher = stronger binding
Quantity: fitted relative affinity
All sequences stand within: GCCTAGCAC … GTCTTGATTCGCTTGACGCTGCTG
Target sequence (chain): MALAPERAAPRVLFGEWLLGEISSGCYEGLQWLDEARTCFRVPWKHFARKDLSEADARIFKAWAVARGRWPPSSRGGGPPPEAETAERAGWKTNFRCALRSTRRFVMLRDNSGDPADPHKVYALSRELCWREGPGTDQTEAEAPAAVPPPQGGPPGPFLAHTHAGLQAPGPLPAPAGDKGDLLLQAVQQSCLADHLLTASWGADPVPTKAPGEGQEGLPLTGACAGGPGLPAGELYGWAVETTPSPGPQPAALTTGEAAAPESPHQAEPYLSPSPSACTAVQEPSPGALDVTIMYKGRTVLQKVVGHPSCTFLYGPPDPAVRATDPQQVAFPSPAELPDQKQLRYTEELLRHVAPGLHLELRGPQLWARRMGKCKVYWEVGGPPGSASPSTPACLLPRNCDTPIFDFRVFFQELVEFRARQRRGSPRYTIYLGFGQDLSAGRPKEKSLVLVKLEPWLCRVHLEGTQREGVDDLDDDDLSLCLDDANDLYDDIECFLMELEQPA
GCCGGACTGCTTTTCCTGACGTGCTAG: 0.408 z-score
GAGGGTCTCGGTCTCGGGACGTGCTAG: -0.573 z-score
GACGGTATCGGTTTCGGGAAGTGCTAG: 2.79 z-score
TGAGGACTGGACTTTCGGTTAGTGCTA: 4.71 z-score
TTAGGACTGGACTATCGATTAGTGCTA: -0.284 z-score
TTCTGAAGCAGAGCCCTGTTGTGCTAG: -0.377 z-score
TTAGATCTCAGTATTGATTAGTGCTAG: 0.031 z-score
TTACATATCAGTATCGATTAGTGCTAG: 1.36 z-score
TTAGGTTTCGGGTTCGGTTAGTGCTAG: 9.66 z-score
TTAGATTTCAGTCTCGAGTAGTGCTAG: 0.709 z-score
GACGACCTGAGTCTCGAGACGTGCTAG: -0.0537 z-score
TTAGGACTGAGTTTCGGTTAGTGCTAG: 4.92 z-score
GGTCTGGCTGGCTCCTGCACGTGCTAG: -0.874 z-score
TCAAATCTTGAGTTAGAACTGTGCTAG: -0.523 z-score
GAAGATATCGGGTTTCGAGACGTGCTA: 1.57 z-score
TCACCTCTGCATTCCCTACTGTGCTAG: 2.46 z-score
TTAGGTCTCGGTTTCGCTTAGTGCTAG: 5.12 z-score
GACGGACTGGGTTATCGGGACGTGCTA: -0.645 z-score

Sample 5
Target: Sal-like protein 4, full length isoform A (SALL4, Homo sapiens, UniProt Q9UJQ4, residues 1-1053)
Sequence of UniProt Q9UJQ4 (whole entry, looked up): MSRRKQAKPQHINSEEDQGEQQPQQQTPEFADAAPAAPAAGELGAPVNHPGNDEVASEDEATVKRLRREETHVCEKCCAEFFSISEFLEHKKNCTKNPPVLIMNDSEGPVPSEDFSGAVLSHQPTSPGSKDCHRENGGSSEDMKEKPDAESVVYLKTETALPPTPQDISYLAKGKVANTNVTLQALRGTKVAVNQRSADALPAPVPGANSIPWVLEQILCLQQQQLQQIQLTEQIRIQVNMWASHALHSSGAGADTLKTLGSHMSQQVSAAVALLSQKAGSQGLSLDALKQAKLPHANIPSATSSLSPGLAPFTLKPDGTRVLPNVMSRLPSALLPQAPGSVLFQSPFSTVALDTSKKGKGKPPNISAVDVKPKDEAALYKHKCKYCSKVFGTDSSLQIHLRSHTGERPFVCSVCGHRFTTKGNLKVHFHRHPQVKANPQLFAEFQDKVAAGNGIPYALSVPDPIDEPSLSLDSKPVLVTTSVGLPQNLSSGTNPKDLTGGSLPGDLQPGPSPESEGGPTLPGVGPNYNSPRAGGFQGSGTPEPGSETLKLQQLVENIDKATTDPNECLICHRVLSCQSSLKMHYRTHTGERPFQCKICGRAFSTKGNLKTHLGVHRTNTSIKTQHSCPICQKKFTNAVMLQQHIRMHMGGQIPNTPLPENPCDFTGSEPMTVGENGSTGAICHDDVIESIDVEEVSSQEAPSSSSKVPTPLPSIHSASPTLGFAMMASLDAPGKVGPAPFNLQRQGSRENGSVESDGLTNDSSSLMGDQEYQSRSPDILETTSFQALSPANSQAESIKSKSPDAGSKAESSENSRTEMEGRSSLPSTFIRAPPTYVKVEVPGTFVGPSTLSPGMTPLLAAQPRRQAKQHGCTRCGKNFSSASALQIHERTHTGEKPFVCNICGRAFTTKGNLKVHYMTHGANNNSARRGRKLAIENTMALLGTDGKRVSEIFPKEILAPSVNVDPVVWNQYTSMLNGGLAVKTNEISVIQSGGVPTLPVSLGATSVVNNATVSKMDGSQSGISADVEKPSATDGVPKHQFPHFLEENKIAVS
Method: universal PBM
Molecule type: double-stranded DNA, one strand shown
Sample: in vitro
Concentration: 600 nM
Setting: 8-mer, flanks averaged, mean of replicates
Reading: higher = stronger binding
Quantity: E-score
ACGCTAAC: -0.135
GAGTACTC: -0.0717
CTGCGTTA: 0.00347
CCGCGCGG: -0.294
GGCTCTAA: -0.0476
AGCTGCCT: -0.254
ATTCTAGG: 0.169
CGTCGCTA: -0.134
ACGATCGC: -0.0646
ATTAGCGC: 0.115
AGCTACTG: -0.0883
CGTGCACC: -0.285
AAGAGATT: 0.114
ATCGCAGG: 0.00956
ATAAACAT: 0.379
GTGACGAA: -0.0839
CTAGCCTC: -0.105
AGATGCGG: -0.108
CTTCTCTA: 0.0329
CCGTTCGC: -0.273
GAATTGAA: 0.22

Repeated from above (sample 3):
UCUUUGCUGGUUUACUCUAGGACUUCAAAGUUUGUCUGGGAUUUUUUUAUUAAAAAAAAUUGUCUUUGAGAGUUGAGCUGGCACAGUAUUCUGUCCUAUAGAUUACUGGU: 0.877
GAGAAGAGGCGCUUCAAGCUCUUCUAAGCCUUGAUGGUGUCUCCCUUUAGGCAAAGAUCUGAAAUAUGACUACAGUUGUGCUGUUGAUGGGUUCUGCUUUAGAAAUUGUA: 0.538
CUACUCCCACACUUGCUUGUGAAACGUGUACCAGCUACCUAAGGAGGGCCAAGGCAGGAAGGGCCAGGGCCUCCUCUGUCCUUACCAACUCUGGGAAGUCAGCUCUGCCG: 0.758
UUCCUAUGAGCUCUCUGCUCAGAGCAGCUGUCUGUGGUCCCGUGGGUCCUGGAUUCUGUGAUGGUAUCAGCACCUGGACGGCCCCAGUCUAGAUUCAGCAAUGAAAAUCC: 0.215
UGUAGACUAGAGGAGAGGCUAGAGAGCAUGUGCUGCGGGGCCUAAUUAUAGGUCCUCACUCUUGACAGGGCUGAGCAAACAGAAACUGUCCACCAGUGAUCUCAAGCAUG: 3.09
GCAAGGCUGCUGGCAGACUUCUCCACUGACCUGAGUGUGCUUUUUUUUUCCCCUAAAUGUAUUGCAUCAAGCCUCAGUGCUUAUGGAGUGCAGUGGUCUUCAUCUUCCCC: 0.421
AGAGAGUUACCUCAGGGGAUCCAGAGUUGCCGCAAGUCUGAUGGCGCCAUCAAACUUAUGGGCAGGGAUAACAGUGUGCCUGGUUAAUAUUAAUAUUCCCAUUUUAUUAA: 0.455
